# Measured values gathered from unrelated publications.
# Every numbered part comes from another study and shows a few of its results, in no order.
# UniProt Q16288, sequence (whole entry, looked up): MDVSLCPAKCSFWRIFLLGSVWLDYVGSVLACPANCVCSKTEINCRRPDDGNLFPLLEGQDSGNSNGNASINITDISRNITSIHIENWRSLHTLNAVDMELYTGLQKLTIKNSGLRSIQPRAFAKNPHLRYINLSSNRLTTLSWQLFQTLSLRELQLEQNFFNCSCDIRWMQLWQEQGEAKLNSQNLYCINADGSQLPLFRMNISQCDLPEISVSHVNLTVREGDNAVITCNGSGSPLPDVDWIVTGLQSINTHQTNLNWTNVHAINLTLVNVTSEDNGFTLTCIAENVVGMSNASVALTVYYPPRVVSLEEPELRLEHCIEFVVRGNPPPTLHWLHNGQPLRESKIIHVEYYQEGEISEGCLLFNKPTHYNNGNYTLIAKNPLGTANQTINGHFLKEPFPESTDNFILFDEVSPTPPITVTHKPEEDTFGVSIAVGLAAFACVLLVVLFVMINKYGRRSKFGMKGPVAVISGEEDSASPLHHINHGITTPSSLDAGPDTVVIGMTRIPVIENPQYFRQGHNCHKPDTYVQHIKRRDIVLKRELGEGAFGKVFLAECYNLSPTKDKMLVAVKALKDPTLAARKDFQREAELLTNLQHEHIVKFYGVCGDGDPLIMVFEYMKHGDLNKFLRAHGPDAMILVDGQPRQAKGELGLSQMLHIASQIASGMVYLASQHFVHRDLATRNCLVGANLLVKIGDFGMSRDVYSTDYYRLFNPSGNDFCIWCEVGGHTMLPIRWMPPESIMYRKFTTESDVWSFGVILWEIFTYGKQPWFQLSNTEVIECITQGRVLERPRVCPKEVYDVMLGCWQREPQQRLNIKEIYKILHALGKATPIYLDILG
# UniProt Q9Y2U5, sequence (whole entry, looked up): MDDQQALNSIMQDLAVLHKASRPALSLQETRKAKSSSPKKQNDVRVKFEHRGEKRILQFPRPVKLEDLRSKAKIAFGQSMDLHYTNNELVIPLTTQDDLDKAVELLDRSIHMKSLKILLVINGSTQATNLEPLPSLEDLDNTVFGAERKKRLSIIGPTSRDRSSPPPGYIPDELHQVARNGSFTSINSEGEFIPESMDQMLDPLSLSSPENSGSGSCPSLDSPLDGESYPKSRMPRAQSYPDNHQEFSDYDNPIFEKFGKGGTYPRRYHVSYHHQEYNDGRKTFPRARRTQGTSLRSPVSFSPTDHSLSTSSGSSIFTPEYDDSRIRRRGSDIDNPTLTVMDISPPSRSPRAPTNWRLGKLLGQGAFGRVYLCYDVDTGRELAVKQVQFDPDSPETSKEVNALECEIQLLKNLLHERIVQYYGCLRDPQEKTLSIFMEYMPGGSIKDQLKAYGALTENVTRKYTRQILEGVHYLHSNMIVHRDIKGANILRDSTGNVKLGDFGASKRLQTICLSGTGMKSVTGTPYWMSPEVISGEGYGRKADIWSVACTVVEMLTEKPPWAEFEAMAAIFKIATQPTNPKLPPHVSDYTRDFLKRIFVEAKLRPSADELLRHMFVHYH
# UniProt Q15139, sequence (whole entry, looked up): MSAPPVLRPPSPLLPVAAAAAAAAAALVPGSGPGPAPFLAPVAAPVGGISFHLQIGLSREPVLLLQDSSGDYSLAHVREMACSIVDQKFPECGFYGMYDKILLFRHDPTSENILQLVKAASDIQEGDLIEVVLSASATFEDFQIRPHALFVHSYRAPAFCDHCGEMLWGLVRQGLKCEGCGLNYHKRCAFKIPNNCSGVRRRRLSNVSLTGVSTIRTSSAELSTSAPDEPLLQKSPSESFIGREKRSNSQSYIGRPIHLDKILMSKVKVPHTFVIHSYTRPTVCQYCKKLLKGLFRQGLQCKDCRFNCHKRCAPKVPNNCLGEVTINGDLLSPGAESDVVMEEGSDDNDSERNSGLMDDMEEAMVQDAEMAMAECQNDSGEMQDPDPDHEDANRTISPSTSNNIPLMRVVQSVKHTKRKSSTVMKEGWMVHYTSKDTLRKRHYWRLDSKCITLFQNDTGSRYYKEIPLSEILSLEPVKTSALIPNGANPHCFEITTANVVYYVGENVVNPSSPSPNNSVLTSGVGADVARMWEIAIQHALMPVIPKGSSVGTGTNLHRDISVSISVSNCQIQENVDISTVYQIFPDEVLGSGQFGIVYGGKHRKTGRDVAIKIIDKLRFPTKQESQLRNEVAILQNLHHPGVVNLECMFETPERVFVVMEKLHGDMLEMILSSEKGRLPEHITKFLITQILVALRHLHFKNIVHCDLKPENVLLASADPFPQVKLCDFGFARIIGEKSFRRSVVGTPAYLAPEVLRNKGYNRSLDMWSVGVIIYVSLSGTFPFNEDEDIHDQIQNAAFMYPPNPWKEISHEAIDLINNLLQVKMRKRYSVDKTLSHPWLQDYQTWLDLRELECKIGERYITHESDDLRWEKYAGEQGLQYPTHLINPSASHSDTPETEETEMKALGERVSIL
# UniProt Q8TD19, sequence (whole entry, looked up): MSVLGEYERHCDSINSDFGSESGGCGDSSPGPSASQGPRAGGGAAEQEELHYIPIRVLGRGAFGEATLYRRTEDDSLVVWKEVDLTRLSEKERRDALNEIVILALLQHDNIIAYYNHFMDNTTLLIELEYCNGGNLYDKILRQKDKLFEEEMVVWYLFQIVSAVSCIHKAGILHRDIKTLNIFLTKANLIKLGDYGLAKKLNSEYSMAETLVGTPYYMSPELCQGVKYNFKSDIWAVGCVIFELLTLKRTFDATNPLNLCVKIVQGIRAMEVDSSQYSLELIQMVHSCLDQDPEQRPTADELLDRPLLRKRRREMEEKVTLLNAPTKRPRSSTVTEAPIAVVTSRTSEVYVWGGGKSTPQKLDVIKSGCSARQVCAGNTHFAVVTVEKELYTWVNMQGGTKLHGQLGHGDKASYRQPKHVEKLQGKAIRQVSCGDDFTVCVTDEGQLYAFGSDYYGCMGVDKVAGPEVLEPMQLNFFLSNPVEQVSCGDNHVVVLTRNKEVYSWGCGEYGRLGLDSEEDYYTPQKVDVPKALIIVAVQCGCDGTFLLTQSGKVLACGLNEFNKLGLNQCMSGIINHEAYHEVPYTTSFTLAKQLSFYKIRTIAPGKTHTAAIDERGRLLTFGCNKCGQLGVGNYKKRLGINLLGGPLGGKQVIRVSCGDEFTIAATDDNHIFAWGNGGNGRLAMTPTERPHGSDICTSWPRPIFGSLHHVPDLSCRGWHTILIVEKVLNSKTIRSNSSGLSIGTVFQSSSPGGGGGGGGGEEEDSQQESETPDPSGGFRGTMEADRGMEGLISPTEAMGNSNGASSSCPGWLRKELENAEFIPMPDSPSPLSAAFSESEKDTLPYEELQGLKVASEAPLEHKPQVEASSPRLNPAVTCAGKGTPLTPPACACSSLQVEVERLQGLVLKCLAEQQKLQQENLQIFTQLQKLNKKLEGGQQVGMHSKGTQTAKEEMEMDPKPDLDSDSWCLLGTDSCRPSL
# UniProt Q9H2G2, sequence (whole entry, looked up): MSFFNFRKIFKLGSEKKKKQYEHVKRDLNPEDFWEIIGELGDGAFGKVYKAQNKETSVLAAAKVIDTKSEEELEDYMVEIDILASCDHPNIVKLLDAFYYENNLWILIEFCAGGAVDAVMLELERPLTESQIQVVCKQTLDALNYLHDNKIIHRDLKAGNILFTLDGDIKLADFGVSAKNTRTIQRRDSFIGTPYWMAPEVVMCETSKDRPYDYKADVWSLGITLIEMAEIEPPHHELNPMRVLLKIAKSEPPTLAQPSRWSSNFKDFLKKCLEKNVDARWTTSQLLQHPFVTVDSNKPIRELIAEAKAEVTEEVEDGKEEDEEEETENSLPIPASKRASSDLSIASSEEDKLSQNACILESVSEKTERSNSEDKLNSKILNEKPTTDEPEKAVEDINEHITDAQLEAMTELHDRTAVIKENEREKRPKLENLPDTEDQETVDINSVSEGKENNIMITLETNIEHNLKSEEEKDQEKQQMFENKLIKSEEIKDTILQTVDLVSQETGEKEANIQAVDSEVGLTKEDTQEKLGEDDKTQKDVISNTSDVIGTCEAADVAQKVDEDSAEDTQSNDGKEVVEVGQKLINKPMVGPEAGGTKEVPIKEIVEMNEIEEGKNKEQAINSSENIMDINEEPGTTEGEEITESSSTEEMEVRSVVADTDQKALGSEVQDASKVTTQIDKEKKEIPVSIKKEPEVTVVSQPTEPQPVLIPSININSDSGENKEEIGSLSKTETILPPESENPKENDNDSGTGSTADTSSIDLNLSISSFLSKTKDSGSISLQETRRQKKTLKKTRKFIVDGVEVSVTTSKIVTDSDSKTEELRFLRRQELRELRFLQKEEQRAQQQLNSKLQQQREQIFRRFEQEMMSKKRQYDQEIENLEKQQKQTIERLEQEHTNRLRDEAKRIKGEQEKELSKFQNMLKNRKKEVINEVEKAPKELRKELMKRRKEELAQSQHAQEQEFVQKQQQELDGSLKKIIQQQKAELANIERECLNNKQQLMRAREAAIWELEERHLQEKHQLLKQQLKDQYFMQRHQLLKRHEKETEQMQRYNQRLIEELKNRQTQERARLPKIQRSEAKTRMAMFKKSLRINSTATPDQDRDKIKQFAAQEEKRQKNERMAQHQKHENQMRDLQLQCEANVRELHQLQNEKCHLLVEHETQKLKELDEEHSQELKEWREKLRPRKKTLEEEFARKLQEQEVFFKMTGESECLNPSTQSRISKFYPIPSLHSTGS
# UniProt Q9NR20, sequence (whole entry, looked up): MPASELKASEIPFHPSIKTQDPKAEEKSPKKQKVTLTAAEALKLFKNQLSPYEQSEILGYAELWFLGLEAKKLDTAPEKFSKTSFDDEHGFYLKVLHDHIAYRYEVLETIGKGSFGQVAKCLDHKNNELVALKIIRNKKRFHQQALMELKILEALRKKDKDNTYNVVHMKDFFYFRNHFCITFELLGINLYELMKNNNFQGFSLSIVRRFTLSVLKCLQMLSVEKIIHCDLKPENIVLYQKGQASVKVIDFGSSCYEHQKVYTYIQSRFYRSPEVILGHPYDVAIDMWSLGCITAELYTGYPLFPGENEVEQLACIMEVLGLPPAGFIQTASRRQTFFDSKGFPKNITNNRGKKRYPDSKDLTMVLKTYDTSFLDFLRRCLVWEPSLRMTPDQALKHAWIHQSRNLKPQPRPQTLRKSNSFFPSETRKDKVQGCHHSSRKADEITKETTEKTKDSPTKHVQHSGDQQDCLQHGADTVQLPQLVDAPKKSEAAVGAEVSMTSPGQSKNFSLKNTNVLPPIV

# Block 1
# Target: PABPC1L2, full length, GST fusion (mouse, UniProt A0ABA7IW68)
# Technique: RNAcompete
# Form: RNA
# Sample: in vitro
# Tested at: 20 nM
# Notes: 7-mer, probes averaged, single round
# Reference: mean of 7-mers
# Reading: higher = stronger binding
# Target sequence (chain): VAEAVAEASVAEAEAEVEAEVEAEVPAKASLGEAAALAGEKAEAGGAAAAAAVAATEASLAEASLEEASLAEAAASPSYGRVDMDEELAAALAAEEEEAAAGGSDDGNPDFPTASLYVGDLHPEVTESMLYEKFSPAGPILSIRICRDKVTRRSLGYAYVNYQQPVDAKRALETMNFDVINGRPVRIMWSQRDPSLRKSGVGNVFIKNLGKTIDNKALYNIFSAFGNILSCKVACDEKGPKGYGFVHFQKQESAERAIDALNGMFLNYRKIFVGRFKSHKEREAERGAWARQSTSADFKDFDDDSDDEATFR
Strand,7-mer Z-score
UAACACA,0.0623
GUCCUUG,-0.269
CUUACUG,-0.171
AUCAUUU,-0.231
GGGACGA,0.372
GGCUCAU,0.0497
UCGUGAG,-0.425
CAAGGGC,0.263

# Block 2
# Structure (SMILES): Cc1ccc(NC(=O)c2ccc(CN3CCN(C)CC3)cc2)cc1Nc1nccc(-c2cccnc2)n1
# Read-out: enzyme activity
# Action: inhibitor
# Tested at: 0.5 µM
# Reference: control
target,remaining activity [%]
"DYRK4 (Homo sapiens, UniProt Q9NR20)",104
"ROCK2 (Homo sapiens, UniProt O75116)",103
"SLK (Homo sapiens, UniProt Q9H2G2)",104
"MAP3K2 (Homo sapiens, UniProt Q9Y2U5)",110
"CAMK1D (Homo sapiens, UniProt Q8IU85)",95
"NEK9 (Homo sapiens, UniProt Q8TD19)",99.6
"NTRK3 (Homo sapiens, UniProt Q16288)",95.2
"HIPK3 (Homo sapiens, UniProt Q9H422)",98.9
"DMPK (Homo sapiens, UniProt Q09013)",98.2
"PRKD1 (Homo sapiens, UniProt Q15139)",97.9

# Block 3
# Cell line: normal-adjacent organoid sample F
# Technique: CellTiter-Glo
# Tested at: 1 µM
# Notes: replicate mean
# Reference: DMSO
SMILES,viability [%]
Nc1nc(NCc2ccccc2)nc(-c2ccccc2CO)n1,113
CCC(=O)N[C@@H]1CC[C@H](C(=O)N(C)c2ccc(-c3nc4ccccc4o3)cc2)C1,105
O=C1c2ccc(Nc3ccc(F)cc3F)cc2CCc2ccc(OC[C@H](O)CO)cc21,140

# Block 4
# Target: RING finger protein unkempt homolog, zinc fingers 1-6, GST-SBP tag (UNK, Homo sapiens, UniProt Q9C0B0, residues 30-357)
# Technique: RNA Bind-n-Seq
# Form: RNA
# Sample: in vitro
# Tested at: not given
# Notes: RNA with constant flanks, ends assumed
# Reference: input RNA pool
# Reading: higher = stronger binding
# All sequences stand within: GGGAGUUCUACAGUCCGACGAUC … CAACAGAGGAUUGAGCAUCA
# Target sequence (chain): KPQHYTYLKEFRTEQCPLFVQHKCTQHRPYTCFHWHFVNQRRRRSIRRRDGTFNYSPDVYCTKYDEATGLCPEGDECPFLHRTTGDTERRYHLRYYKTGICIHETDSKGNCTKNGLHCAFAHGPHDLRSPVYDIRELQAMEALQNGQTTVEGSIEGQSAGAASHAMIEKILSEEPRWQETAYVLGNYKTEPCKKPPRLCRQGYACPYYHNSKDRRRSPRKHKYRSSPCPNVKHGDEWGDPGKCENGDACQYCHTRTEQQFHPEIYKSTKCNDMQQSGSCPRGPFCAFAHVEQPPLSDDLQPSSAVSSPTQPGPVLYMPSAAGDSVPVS
Strand,bound/input enrichment [ratio]
CGACAUGUCCUCACCUACAUGGAGGAUGCAGUGUGCCAGCUGCUAGAAAACAGGGAAGAUAUCCGCCAAUAUGGAAUUGCCAGGUUCUUCACUGAAUAUUUUAACAGUGUAUGCCAGGGA,0.112
UGUGUUCACAAUUACGUGAAGGGAGGACCCUUGGGGACCGCCAUUCUAAAUAUCAUGCCGGAAUUUAAAAAGCCAAAAUACUAAUUAUUUCUUUGUAGUGUGUAAAGGAAUGUUUUUAAA,0.274
CUAAAAAAGAGAAUAACAUGAAAACGCCCAGGGUUACUUGAAUGUUUUUAUAAGACCGGAAUAUAUGUCUUCACCAUGGGGGGGGUCUCGAUUUCACUAACGUUGUAUAUGAAAAUGUCU,0.35
GUGAUUUUUUCCCCCCCAACUCCGUGUUUCGCUAAGGAAUUAUUUCGCACACGGACCAUUCUCCGCAGUUUCCUCAGUGAUGGAAUAUUCAUGAAUGUGAGUCAUUAUGUAGCCGUCGUA,0.355
CUUCUCAUGACCAACUGUAUCAAGAAUGAUCUUAAUCAUAGCACGCAAUUCGUACAGGGGUCCGCACUUUGUACCCUCGGCUGCAUGGGCUCCUCAGAGAUGUGCAGAGAUCUUGCAGGA,0.124
UACAUGAUGAAAGCGUUCGACCUCAUCGUGGACCGACCCGUGACCCUCGUGAGAGAAUUUACCGAGCGGCAGCACGCAAAGAACAGGUAUUACUACUACCACCGGCAGUACCGCCGCGUG,0.0759
GAUGGCAAUGGCCAGGAGGCCUAUGCCUCAAGCUGUAACAGUGGCACGUCCUACAAUUCCAUCCGCUCAGUGGUGUCCCGGUGAGGGCAGCCUUGGCUUGGGUAGGGUCUUUAUGGACUG,0.0763
CAUUUGAUGUAUGCGGUGAGGGAGGAAGUGGAAGUUCUGAAGGAGCAGAUCAAAGAACUAACCGAGAAAAACUCCCAGCUGGAGCAGGAGAACAAUCUGCUGAAGACGCUGGCCAGUCCG,0.154

# Some of these lines once more (block 2):
target,remaining activity [%]
"MAP3K2 (Homo sapiens, UniProt Q9Y2U5)",110
"SLK (Homo sapiens, UniProt Q9H2G2)",104
"PRKD1 (Homo sapiens, UniProt Q15139)",97.9
"DMPK (Homo sapiens, UniProt Q09013)",98.2
